Results collected from several papers.
Each numbered part is a random draw from the data of one study; scales do not carry over between parts. Values joined by “and” are separate records of one study, mostly repeats; a detail may differ.
Sequence of UniProt P42336 (whole entry, unmodified, looked up): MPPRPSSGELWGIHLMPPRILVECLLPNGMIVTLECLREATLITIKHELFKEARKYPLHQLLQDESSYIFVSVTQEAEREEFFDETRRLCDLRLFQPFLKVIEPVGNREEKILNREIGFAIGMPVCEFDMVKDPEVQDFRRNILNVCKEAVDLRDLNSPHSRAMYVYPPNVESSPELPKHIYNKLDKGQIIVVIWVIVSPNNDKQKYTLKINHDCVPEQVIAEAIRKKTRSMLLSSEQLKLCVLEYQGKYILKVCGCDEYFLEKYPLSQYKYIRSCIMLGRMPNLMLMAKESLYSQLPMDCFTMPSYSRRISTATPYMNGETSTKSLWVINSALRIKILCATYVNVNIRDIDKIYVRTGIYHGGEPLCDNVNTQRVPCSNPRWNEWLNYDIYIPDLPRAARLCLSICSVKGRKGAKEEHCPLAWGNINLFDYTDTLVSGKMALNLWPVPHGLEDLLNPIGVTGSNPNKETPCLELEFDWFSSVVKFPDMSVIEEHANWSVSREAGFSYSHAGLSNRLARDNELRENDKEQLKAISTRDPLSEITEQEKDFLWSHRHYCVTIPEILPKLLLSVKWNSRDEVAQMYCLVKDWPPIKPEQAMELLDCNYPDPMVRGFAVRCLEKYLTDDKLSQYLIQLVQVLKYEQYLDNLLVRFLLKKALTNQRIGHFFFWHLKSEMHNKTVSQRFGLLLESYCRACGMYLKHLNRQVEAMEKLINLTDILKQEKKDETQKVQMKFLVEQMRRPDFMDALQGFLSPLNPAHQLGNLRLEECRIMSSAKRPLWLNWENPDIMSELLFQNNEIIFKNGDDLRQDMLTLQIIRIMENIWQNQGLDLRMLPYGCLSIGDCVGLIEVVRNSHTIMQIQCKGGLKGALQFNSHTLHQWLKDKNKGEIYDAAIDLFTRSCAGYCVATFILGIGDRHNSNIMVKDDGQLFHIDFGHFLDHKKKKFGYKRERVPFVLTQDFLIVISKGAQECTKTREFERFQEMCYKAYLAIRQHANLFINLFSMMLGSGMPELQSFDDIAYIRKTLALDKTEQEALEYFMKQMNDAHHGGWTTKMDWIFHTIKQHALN
Sequence of UniProt P11362 (whole entry, looked up): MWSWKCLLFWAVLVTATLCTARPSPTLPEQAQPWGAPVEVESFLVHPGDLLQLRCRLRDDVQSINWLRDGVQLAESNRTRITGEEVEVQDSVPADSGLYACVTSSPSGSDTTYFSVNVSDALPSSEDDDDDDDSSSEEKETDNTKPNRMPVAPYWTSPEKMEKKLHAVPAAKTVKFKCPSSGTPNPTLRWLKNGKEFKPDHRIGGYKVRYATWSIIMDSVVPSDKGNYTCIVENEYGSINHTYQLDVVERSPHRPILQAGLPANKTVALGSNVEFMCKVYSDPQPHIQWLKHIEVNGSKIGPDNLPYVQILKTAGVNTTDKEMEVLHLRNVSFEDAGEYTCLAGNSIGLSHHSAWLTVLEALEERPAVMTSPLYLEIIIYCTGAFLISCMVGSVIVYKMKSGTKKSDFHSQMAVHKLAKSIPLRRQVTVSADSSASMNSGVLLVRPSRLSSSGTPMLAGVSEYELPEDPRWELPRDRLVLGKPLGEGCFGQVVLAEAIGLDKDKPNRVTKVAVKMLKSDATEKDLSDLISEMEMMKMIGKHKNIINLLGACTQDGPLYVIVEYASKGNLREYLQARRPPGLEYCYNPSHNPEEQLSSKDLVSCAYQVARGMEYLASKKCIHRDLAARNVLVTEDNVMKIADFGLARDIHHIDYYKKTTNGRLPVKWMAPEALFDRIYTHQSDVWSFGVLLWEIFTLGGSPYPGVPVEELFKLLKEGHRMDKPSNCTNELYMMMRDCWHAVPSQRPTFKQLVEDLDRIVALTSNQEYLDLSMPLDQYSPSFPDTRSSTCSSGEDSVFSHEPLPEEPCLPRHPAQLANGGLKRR

Study 1
Target: DNA polymerase theta, ATPase domain (POLQ, Homo sapiens, UniProt O75417)
Sequence of UniProt O75417 (whole entry, unmodified, looked up): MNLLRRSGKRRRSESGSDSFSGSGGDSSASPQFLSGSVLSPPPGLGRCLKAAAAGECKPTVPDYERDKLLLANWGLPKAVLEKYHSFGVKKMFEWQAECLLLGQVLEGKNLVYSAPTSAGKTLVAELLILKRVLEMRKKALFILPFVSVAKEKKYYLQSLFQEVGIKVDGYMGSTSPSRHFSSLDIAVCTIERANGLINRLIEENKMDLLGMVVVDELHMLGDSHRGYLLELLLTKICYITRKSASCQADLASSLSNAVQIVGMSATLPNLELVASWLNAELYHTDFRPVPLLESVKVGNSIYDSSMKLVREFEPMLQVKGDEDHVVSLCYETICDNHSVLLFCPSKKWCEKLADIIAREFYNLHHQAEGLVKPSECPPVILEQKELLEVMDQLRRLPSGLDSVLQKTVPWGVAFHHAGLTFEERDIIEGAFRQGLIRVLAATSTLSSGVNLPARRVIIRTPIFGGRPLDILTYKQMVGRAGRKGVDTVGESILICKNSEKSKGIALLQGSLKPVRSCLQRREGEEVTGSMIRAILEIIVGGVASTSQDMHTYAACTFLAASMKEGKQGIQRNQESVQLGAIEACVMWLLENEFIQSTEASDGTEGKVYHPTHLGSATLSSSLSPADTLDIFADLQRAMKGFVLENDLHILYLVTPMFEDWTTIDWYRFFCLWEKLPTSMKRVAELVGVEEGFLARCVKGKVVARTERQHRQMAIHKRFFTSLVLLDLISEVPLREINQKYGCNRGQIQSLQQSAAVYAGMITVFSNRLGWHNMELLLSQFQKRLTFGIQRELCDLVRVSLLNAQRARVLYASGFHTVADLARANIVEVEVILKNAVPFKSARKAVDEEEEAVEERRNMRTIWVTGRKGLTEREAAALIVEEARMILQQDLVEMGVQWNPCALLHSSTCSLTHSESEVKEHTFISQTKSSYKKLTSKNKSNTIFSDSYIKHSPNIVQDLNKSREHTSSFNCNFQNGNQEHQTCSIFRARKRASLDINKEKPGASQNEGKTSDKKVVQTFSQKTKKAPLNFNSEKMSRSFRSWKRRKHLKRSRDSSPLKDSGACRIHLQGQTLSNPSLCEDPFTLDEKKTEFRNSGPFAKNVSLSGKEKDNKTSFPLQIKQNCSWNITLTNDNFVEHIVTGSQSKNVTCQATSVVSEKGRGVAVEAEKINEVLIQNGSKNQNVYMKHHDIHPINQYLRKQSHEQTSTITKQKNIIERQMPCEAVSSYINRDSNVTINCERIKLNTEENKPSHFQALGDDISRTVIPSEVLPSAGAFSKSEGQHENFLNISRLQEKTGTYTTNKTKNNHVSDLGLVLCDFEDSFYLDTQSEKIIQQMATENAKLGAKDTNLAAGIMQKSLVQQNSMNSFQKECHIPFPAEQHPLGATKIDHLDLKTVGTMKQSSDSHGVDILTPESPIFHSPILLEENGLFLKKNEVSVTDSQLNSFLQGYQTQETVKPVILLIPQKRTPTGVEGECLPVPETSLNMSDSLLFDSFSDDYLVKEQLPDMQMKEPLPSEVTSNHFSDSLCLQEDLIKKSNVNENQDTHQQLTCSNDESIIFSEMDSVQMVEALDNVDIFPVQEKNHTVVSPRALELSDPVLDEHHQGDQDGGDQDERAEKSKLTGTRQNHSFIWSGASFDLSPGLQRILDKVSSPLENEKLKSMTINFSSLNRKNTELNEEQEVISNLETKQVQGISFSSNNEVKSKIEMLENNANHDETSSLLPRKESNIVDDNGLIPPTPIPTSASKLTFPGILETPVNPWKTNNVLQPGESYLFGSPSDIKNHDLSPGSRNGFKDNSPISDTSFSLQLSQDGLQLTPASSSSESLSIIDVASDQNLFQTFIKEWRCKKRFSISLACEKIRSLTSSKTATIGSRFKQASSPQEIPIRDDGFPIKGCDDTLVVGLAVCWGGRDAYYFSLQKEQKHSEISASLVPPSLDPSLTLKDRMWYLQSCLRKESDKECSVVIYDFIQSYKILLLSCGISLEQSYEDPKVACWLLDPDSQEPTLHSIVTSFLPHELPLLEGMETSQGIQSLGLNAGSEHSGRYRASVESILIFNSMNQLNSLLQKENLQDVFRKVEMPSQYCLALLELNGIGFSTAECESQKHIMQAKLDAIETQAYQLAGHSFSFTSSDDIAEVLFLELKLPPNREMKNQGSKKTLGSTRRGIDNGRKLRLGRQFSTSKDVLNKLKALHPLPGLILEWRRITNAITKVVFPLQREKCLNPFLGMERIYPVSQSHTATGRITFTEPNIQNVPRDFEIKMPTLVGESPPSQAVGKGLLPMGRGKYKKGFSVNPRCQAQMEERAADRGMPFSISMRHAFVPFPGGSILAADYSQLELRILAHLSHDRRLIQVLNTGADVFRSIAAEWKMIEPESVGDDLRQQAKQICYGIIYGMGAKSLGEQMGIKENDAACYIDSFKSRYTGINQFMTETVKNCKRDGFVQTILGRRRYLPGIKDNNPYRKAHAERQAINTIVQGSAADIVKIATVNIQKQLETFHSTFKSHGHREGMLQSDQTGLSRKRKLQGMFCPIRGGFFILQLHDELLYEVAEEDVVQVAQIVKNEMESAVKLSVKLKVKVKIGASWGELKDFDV
Effect on: enzyme activity
Action: inhibitor
Concentration: 77 µM
Relative to: untreated
| SMILES | remaining activity |
| --- | --- |
| CN[C@@H]1[C@@H](O[C@H]2O[C@H](CO)[C@@H](N)[C@H](O)[C@H]2O)O[C@H]2C[C@@H](N)[C@@H](O[C@H]3[C@H](O)[C@@H](O)[C@H](N)C[C@@H]3N)O[C@@H]2[C@@H]1O | 102% |
| CN1CCC(NC(=O)c2cc(-c3c(O)cc(O)cc3Oc3ccc([N+](=O)[O-])cc3)on2)CC1 | 104% |
| O=C1CCC(c2ccc(-n3ccnc3)cc2)=NN1 | 99.6% |
| Cc1cc(C(C#N)c2ccc(Cl)cc2)c(Cl)cc1NC(=O)c1cc(I)cc(I)c1O (stereo not shown) | 84.2% |
| CC(C)NCC(O)c1ccc2ccccc2c1 (stereo not shown) | 99.9% |
| O=C(O)c1cc(/N=N/c2ccc(S(=O)(=O)Nc3ccccn3)cc2)ccc1O | 91.6% and 93.4% |

Study 2
Effect on: AlphaScreen signal
Technique: AlphaScreen counter screen
Sample: His6 peptide without bromodomain
Concentration: 50 µM
Setting: assay interference check
| SMILES | inhibition [%] |
| --- | --- |
| COc1cc2nccc(Oc3ccc(NC(=O)C4(C(=O)Nc5ccc(F)cc5)CC4)cc3)c2cc1OC | 30.6 |
| Nc1nc(Nc2ccc(F)cc2)sc1C(=O)c1ccc(F)cc1 | 42.3 |
| CCc1cc(Nc2nccc(-c3c(-c4ccc(OC)c(C(=O)Nc5c(F)cccc5F)c4)nc4ccccn34)n2)c(OC)cc1N1CCC(N2CCN(S(C)(=O)=O)CC2)CC1 | 32.2 |
| Nc1[nH]nc2nnc(-c3c(-c4ccccc4)nn4ccccc34)cc12 | 18.9 |
| Cc1nc(N)sc1-c1csc(Nc2ccc(Cl)cc2)n1 | 80.5 |
| CCOc1cc(C=NNc2ccc3nnc(-c4ccc(Br)cc4)n3n2)ccc1O | 9.3 |
| COc1cccc(NC(=O)c2c(O)c3ccccc3[nH]c2=O)c1 | 15.7 |

Study 3
Target: Calcium/calmodulin-dependent protein kinase type II subunit alpha (CAMK2A, Homo sapiens, UniProt Q9UQM7)
Sequence of UniProt Q9UQM7 (whole entry, looked up): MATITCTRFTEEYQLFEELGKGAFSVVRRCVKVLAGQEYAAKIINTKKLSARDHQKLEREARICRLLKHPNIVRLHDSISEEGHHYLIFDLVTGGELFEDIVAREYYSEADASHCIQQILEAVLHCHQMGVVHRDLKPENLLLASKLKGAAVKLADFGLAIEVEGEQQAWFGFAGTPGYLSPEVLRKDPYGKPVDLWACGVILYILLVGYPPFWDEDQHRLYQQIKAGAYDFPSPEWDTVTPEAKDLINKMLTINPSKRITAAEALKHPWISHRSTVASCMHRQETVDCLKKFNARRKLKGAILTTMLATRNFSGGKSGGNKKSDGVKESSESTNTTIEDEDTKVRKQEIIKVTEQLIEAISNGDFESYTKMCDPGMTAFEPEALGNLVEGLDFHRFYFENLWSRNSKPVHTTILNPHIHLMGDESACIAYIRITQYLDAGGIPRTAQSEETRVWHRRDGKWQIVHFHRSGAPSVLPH
Effect on: enzyme activity
Action: inhibitor
Concentration: 10 µM
| Structure (SMILES) | inhibition |
| --- | --- |
| CSc1ccc(OCc2ncc([N+](=O)[O-])n2C)cc1 | -6% |
| O=c1ccc2cc(O)ccc2o1 | 15% |
| CC(C)C[C@@H](NC(=O)[C@@H](Cc1ccccc1)NC(=O)[C@H](N)Cc1ccccc1)C(=O)N[C@H](CCCCN)C(=O)N1CCC(N)(C(=O)O)CC1 | -12% |
| CC=Cc1ccc(OC(C)=O)c(OC)c1 | -3% |
| O=C(O)C(O)C(O)C(=O)O (stereo not shown) | 0.01% |
| C[C@]12CC[C@@H](O)C[C@H]1CC[C@@H]1[C@@H]2C(=O)C[C@@]2(C)[C@H]1CC[C@]2(O)C(=O)CO | 9% |
| CC(C)(O)[C@@H]1Cc2c(ccc3ccc(=O)oc23)O1 | 6% |
| CO[C@]1(C(=O)N[C@@H](C)c2ccc(-n3cc(F)cn3)nc2)CC[C@H](c2nc(C)cc(Nc3cc(C)[nH]n3)n2)CC1 | -3% |

Study 4
SMILES: CO[C@@H]1[C@H](N(C)C(=O)c2ccccc2)C[C@H]2O[C@]1(C)n1c3ccccc3c3c4c(c5c6ccccc6n2c5c31)C(=O)NC4
Effect on: enzyme activity
Action: inhibitor
Concentration: 1 µM
| target | inhibition [%] |
| --- | --- |
| Mitogen-activated protein kinase 3 (MAPK3, Homo sapiens, UniProt P27361) | 0 |
| Tyrosine-protein kinase TXK (TXK, Homo sapiens, UniProt P42681) | 4 |
| Serine/threonine-protein kinase PLK1 (PLK1, Homo sapiens, UniProt P53350) | 0 |
| Cyclin-dependent kinase 4 (CDK4, Homo sapiens, UniProt P11802) | 11 |
| Serine/threonine-protein kinase TAO1 (TAOK1, Homo sapiens, UniProt Q7L7X3) | 50 |
| Vascular endothelial growth factor receptor 3 (FLT4, Homo sapiens, UniProt P35916) | 96 |

Study 5
SMILES: CC(=O)C1=C(C)N(c2cccc(C(F)(F)F)c2)C(=O)N[C@@H]1c1ccc(C#N)nc1
Effect on: cell-free assay
Technique: competition with immobilised ligand
Concentration: 1 µM
| target | remaining binding [%] |
| --- | --- |
| Serine/threonine-protein kinase MRCK beta (CDC42BPB, Homo sapiens, UniProt Q9Y5S2) | 100 |
| Fibroblast growth factor receptor 1 (FGFR1, Homo sapiens, UniProt P11362) | 100 |
| Mitogen-activated protein kinase kinase kinase 1 (MAP3K1, Homo sapiens, UniProt Q13233) | 100 |
| Dual specificity protein kinase TTK (TTK, Homo sapiens, UniProt P33981) | 97.9 |
| Epidermal growth factor receptor (EGFR, Homo sapiens, UniProt P00533, T790M) | 67.2 |
| Phosphatidylinositol 4,5-bisphosphate 3-kinase catalytic subunit alpha isoform (PIK3CA, Homo sapiens, UniProt P42336, E542K) | 100 |
| Myotonin-protein kinase (DMPK, Homo sapiens, UniProt Q09013) | 86.5 |
| Serine/threonine-protein kinase 16 (STK16, Homo sapiens, UniProt O75716) | 84.6 |
| Bone morphogenetic protein receptor type-2 (BMPR2, Homo sapiens, UniProt Q13873) | 100 |
| Receptor-type tyrosine-protein kinase FLT3 (FLT3, Homo sapiens, UniProt P36888, D835H) | 100 |
| Serine/threonine-protein kinase SBK1 (SBK1, Homo sapiens, UniProt Q52WX2) | 100 |
| Phosphatidylinositol 4,5-bisphosphate 3-kinase catalytic subunit alpha isoform (PIK3CA, Homo sapiens, UniProt P42336, Q546K) | 100 |
| Mitogen-activated protein kinase kinase kinase 4 (MAP3K4, Homo sapiens, UniProt Q9Y6R4) | 100 |
| Glycogen synthase kinase-3 beta (GSK3B, Homo sapiens, UniProt P49841) | 100 |
| Serine/threonine-protein kinase Nek5 (NEK5, Homo sapiens, UniProt Q6P3R8) | 80.6 |
| Hepatocyte growth factor receptor (MET, Homo sapiens, UniProt P08581, M1250T) | 100 |
| Epidermal growth factor receptor (EGFR, Homo sapiens, UniProt P00533, del747-750/T751S) | 100 |
| Receptor-type tyrosine-protein kinase FLT3, autoinhibited (FLT3, Homo sapiens, UniProt P36888) | 82.9 |
| Mitogen-activated protein kinase kinase kinase 6 (MAP3K6, Homo sapiens, UniProt O95382) | 91.2 |
| MAP/microtubule affinity-regulating kinase 4 (MARK4, Homo sapiens, UniProt Q96L34) | 100 |
| Ribosomal protein S6 kinase alpha-6, C-terminal kinase domain (RPS6KA6, Homo sapiens, UniProt Q9UK32) | 87.7 |
| SRSF protein kinase 1 (SRPK1, Homo sapiens, UniProt Q96SB4) | 67.5 |
| LIM domain kinase 2 (LIMK2, Homo sapiens, UniProt P53671) | 91.7 |
| Serine/threonine-protein kinase D3 (PRKD3, Homo sapiens, UniProt O94806) | 78 |
| Serine/threonine-protein kinase Nek3 (NEK3, Homo sapiens, UniProt P51956) | 72 |

Repeated from above (study 5):
| target | remaining binding [%] |
| --- | --- |
| Glycogen synthase kinase-3 beta (GSK3B, Homo sapiens, UniProt P49841) | 100 |
| Serine/threonine-protein kinase Nek5 (NEK5, Homo sapiens, UniProt Q6P3R8) | 80.6 |
| Hepatocyte growth factor receptor (MET, Homo sapiens, UniProt P08581, M1250T) | 100 |
| Epidermal growth factor receptor (EGFR, Homo sapiens, UniProt P00533, del747-750/T751S) | 100 |
| Receptor-type tyrosine-protein kinase FLT3, autoinhibited (FLT3, Homo sapiens, UniProt P36888) | 82.9 |
